Published values collected from several papers.
Protocols differ between the studies behind these lines. pIC50: −log10 of the molar value.
Cell line: Vero

| SMILES | test | conditions | scale | measurement | value |
| --- | --- | --- | --- | --- | --- |
| CN(c1ccnc2cc(C(F)(F)F)ccc12)[C@@H](Cc1ccccc1)CN1CCCC1 | cell growth or viability, resazurin | 72 h | – | CC50 | 39.2 µM |
| COC(=O)CCCCCCCCCCC(=O)NS(=O)(=O)OC[C@H]1O[C@@H](n2cnc3c(N)ncnc32)[C@H](O)[C@@H]1O | cytotoxicity, MTT | 72 h | – | pIC50 | 4.85 |
| CCCCCCC/C=C/C(=O)N1C(=O)/C(=C(\O)c2ccc(F)cc2)C(=O)C1CC(C)C (stereo not drawn) | cytotoxicity, CellTiter-Glo | 72 h, 50% viability reduction | – | IC50 | 13.4 µg/mL |
| O=c1cc(C(F)(F)F)[nH]c2cc(C(F)(F)F)cc(Nc3ccc(F)cn3)c12 | – | 30 µM, 24 h | reference: SDS control | LDH release | ~20% |
| Nc1nc2c(ncn2COCCO)c(=O)[nH]1 | cell growth or viability, MTT | 24 h | – | CC50 | 975 µM |
| CC(C)C[C@@H](CN1CCCC1)N(C)c1ccnc2cc(Cl)ccc12 | cell growth or viability, resazurin | 72 h | – | CC50 | 47 µM |
| CCCCCCC/C=C/C(=O)N1C(=O)/C(=C(\O)c2ccc(O)cc2)C(=O)C1CC(C)C (stereo not drawn) | cytotoxicity, CellTiter-Glo | 72 h, 50% viability reduction | – | IC50 | 57.6 µg/mL |
| CCCCOC(=O)Nc1cc2nc(C3CCCCC3)[nH]c2cc1N(C)C | cytotoxicity, Alamar Blue | 3 days, 37 °C | – | IC50 | > 100 µg/mL |
| CCCCCCC/C=C/C(=O)N1C(=O)/C(=C(\O)c2ccc(OCOCCOC)cc2)C(=O)C1CC(C)C (stereo not drawn) | cytotoxicity, CellTiter-Glo | 72 h, 50% viability reduction | – | IC50 | 19.8 µg/mL |
| CCOC(=O)C1=C(C)N2NC(c3ccccc3O)N(C(Cc3c[nH]c4ccccc34)C(=O)O)C2=NC1c1ccc(Cl)cc1 (stereo not drawn) | cell viability, MTT | 72 h, 10% fetal bovine serum | – | CC50 | 125 µg/mL |
| CCCCCCC/C=C/C(=O)N1C(=O)/C(=C(\O)c2ccncc2)C(=O)C1CC(C)C (stereo not drawn) | cytotoxicity, CellTiter-Glo | 72 h, 50% viability reduction | – | IC50 | 116 µg/mL |
| CCN(CC)CCCC(C)Nc1ccnc2cc(Cl)ccc12 (stereo not drawn) | cell growth or viability, MTT | 72 h | – | CC50 | 492 µM |
| O=c1cc(C(F)(F)F)[nH]c2cc(C(F)(F)F)cc(Nc3ccc(C(F)(F)F)cn3)c12 | – | 30 µM, 24 h | reference: SDS control | LDH release | ~20% |
| CCN(CC)C[C@H](CC(C)C)N(C)c1ccnc2cc(C(F)(F)F)ccc12 | cell growth or viability, resazurin | 72 h | – | CC50 | 51.4 µM |
| CCCCCCC/C=C/C(=O)N1C(=O)/C(=C(/C)O)C(=O)C1CCCCN (stereo not drawn) | cytotoxicity, CellTiter-Glo | 72 h, 50% viability reduction | – | IC50 | 164 µg/mL |
| CCOc1ccc(C(=O)Nc2cc3nc(C4CCCCC4)[nH]c3cc2N(CC)CC)cc1 | cytotoxicity, Alamar Blue | 3 days, 37 °C | – | IC50 | > 100 µg/mL |
| CN(c1ccnc2cc(Cl)ccc12)[C@@H](Cc1ccccc1)CN1CCOCC1 | cell growth or viability, resazurin | 72 h | – | CC50 | 33.5 µM |
| CCCCCCC/C=C/C(=O)N1C(=O)/C(=C(\O)c2ccccc2)C(=O)C1CC(C)C (stereo not drawn) | cytotoxicity, CellTiter-Glo | 72 h, 50% viability reduction | – | IC50 | 12.5 µg/mL |
| CCCNC(=O)Nc1cc2nc(C3CCCCC3)[nH]c2cc1N(CC)CC | cytotoxicity, Alamar Blue | 3 days, 37 °C | – | IC50 | > 100 µg/mL |
| CCCCCCC/C=C/C(=O)N1C(=O)/C(=C(\O)C2CCNCC2)C(=O)C1CC(C)C (stereo not drawn) | cytotoxicity, CellTiter-Glo | 72 h, 50% viability reduction | – | IC50 | 115 µg/mL |
| CCCCOC(=O)Nc1cc2nc(C3CCCCC3)[nH]c2cc1N(CC)CC | cytotoxicity, Alamar Blue | 3 days, 37 °C | – | IC50 | > 100 µg/mL |
| CCCCCCCCCC[C@@H](C)C(=O)NS(=O)(=O)OC[C@H]1O[C@@H](n2cnc3c(N)ncnc32)[C@H](O)[C@@H]1O | cytotoxicity, MTT | 72 h | – | pIC50 | 4.40 |
| Cc1ccc(C(=O)Nc2cc3nc(C4CCCCC4)[nH]c3cc2N(C)C)cc1 | cytotoxicity, Alamar Blue | 3 days, 37 °C | – | IC50 | > 100 µg/mL |
| CCCCC/C=C\CCCC(=O)NS(=O)(=O)OC[C@H]1O[C@@H](n2cnc3c(N)ncnc32)[C@H](O)[C@@H]1O | cytotoxicity, MTT | 72 h | – | pIC50 | 4.84 |
| CCCOCC(=O)Nc1cc2nc(C3CCCCC3)[nH]c2cc1N1CCCC1 | cytotoxicity, Alamar Blue | 3 days, 37 °C | – | IC50 | > 100 µg/mL |
| CN(c1ccnc2cc(Cl)ccc12)[C@@H](Cc1ccccc1)CN1CCCC1 | cell growth or viability, resazurin | 72 h | – | CC50 | 57.8 µM |
| CN(C)c1cc2[nH]c(C3CCCCC3)nc2cc1NC(=O)c1ccccc1 | cytotoxicity, Alamar Blue | 3 days, 37 °C | – | IC50 | > 100 µg/mL |
| CC(C)C[C@@H](CN1CCCCC1)N(C)c1ccnc2cc(Cl)ccc12 | cell growth or viability, resazurin | 72 h | – | CC50 | 69.5 µM |
| CCCCCCCCCCCCCCCCCCCC(=O)NS(=O)(=O)OC[C@H]1O[C@@H](n2cnc3c(N)ncnc32)[C@H](O)[C@@H]1O | cytotoxicity, MTT | 72 h | – | pIC50 | 7.15 |
| CCN(CC)c1cc2[nH]c(C3CCCCC3)nc2cc1NC(=O)c1cnccn1 | cytotoxicity, Alamar Blue | 3 days, 37 °C | – | IC50 | > 100 µg/mL |

For quick reference, copied from above:
| SMILES | test | conditions | scale | measurement | value |
| --- | --- | --- | --- | --- | --- |
| CCCCCCC/C=C/C(=O)N1C(=O)/C(=C(\O)c2ccccc2)C(=O)C1CC(C)C (stereo not drawn) | cytotoxicity, CellTiter-Glo | 72 h, 50% viability reduction | – | IC50 | 12.5 µg/mL |
| CCOc1ccc(C(=O)Nc2cc3nc(C4CCCCC4)[nH]c3cc2N(CC)CC)cc1 | cytotoxicity, Alamar Blue | 3 days, 37 °C | – | IC50 | > 100 µg/mL |
| CCCNC(=O)Nc1cc2nc(C3CCCCC3)[nH]c2cc1N(CC)CC | cytotoxicity, Alamar Blue | 3 days, 37 °C | – | IC50 | > 100 µg/mL |
| CCCCCCC/C=C/C(=O)N1C(=O)/C(=C(\O)c2ccc(F)cc2)C(=O)C1CC(C)C (stereo not drawn) | cytotoxicity, CellTiter-Glo | 72 h, 50% viability reduction | – | IC50 | 13.4 µg/mL |
